Published values of several laboratories.
Parts stem from different laboratories: compare values within a part only. Positions count from the first letter of the parent shown.

Study 1
Target: CCND2, cyclin fold, Cln2 fusion (human)
Method: yeast growth competition, sequencing
Matrix: yeast
Setting: weak parent motif
Reference: not given
Direction: higher = stronger binding
Measurement: normalised enrichment score
Starting sequence: SGO1 docking peptide (human); PLAKRALKYTDEK; partner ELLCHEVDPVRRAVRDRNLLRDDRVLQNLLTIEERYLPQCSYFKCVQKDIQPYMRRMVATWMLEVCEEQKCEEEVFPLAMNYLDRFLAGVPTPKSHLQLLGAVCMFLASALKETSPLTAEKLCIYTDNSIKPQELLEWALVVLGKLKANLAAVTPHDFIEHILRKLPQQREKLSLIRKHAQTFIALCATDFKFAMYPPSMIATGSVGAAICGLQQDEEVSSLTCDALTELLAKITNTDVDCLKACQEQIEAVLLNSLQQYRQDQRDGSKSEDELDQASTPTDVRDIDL
PLAKRALKYTAEK [D11A]: -0.191
PLAKRALKYTDAK [E12A]: 0.168
PLAKAALKYTDEK [R5A]: -0.188
PLAKRALKYADEK [T10A]: 0.476
PLAKRALKATDEK [Y9A]: 0.0121

Study 2
Target: Interferon regulatory factor 3, full length, phosphomimetic (IRF3, Homo sapiens, UniProt Q14653, residues 1-427, S386D/S396D/S398D/S402D/T404D/S405D)
Method: protein-binding microarray
Form: double-stranded DNA, one strand shown
Matrix: in vitro
Concentration: 2540 nM top
Setting: 60-bp whole probe
With: salmon DNA 0.4 mg/ml
Reference: random background probes
Direction: higher = stronger binding
Measurement: fitted relative affinity
Shared flanks, not repeated: GCCTAGCAC … GTCTTGATTCGCTTGACGCTGCTG
Target sequence (chain): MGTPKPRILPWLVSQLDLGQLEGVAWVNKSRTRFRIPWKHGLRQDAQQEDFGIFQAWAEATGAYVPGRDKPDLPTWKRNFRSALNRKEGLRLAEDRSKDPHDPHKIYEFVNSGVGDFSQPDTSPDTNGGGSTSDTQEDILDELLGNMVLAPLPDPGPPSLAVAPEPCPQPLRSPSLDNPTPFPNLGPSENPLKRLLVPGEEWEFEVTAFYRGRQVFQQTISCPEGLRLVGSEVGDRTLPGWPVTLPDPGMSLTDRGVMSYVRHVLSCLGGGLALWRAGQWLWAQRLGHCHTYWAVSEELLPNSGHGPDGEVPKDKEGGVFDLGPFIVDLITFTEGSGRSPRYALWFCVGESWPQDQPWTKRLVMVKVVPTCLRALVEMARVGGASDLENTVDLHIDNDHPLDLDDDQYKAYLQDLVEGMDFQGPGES
TCAGTTTTGTGTCTGGGACTGTGCTAG: 1.12 z-score
GATGGTATCCTTATCCTGACGTGCTAG: 5.4 z-score
TTAGGCCTGCTTTTCCTTTAGTGCTAG: 0.491 z-score
TTAGATTTCAGACTGGGTTAGTGCTAG: 0.588 z-score
GTCGGTATCCTTTTCCTGACGTGCTAG: 8.42 z-score
TTTTGTTGTTTTTTGGTTTCGTGCTAG: 2.04 z-score
TTAGGTTTCGGGTTTCGGTTGGTGCTA: 5.7 z-score
TCATCTAAGGATTTCAGACTGTGCTAG: 0.361 z-score
GAAGATTTCGGGTATCGAGACGTGCTA: 1.19 z-score
TCAGTTTTCAGTCCTGGACTGTGCTAG: 2.3 z-score
GACGTTCTCCTTATCCTGACGTGCTAG: 2.79 z-score
GACAAACTGAGTCTCGAGACGTGCTAG: -0.332 z-score
TCACCTCTGTTTTGAGCACTGTGCTAG: 0.417 z-score
TCATCTATGTAGTTGATACTGTGCTAG: 0.418 z-score
TCACTCTTTGGCAAAGCCAGGTGCTAG: 0.33 z-score
TCACTTCTGCATTACAGACTGTGCTAG: 1.23 z-score
TTACATTTCGGGTATCGATTAGTGCTA: 1.67 z-score
ATTGCTTCCTCTTTCACTGCGTGCTAG: 1.48 z-score
GACGATATCGGGTTTCTAGACGTGCTA: 0.536 z-score
CCTGGACGGGAGTGCGGTGCGTGCTAG: -0.718 z-score
TCATGTGTGTGTTTGTGACTGTGCTAG: -0.606 z-score

Study 3
Target: Sal-like protein 4, full length isoform B (SALL4, Homo sapiens, UniProt Q9UJQ4-2, residues 1-616)
Method: universal PBM
Form: double-stranded DNA, one strand shown
Matrix: in vitro
Concentration: not given
Setting: 8-mer, flanks averaged, mean of replicates
Direction: higher = stronger binding
Measurement: E-score
Construct (chain): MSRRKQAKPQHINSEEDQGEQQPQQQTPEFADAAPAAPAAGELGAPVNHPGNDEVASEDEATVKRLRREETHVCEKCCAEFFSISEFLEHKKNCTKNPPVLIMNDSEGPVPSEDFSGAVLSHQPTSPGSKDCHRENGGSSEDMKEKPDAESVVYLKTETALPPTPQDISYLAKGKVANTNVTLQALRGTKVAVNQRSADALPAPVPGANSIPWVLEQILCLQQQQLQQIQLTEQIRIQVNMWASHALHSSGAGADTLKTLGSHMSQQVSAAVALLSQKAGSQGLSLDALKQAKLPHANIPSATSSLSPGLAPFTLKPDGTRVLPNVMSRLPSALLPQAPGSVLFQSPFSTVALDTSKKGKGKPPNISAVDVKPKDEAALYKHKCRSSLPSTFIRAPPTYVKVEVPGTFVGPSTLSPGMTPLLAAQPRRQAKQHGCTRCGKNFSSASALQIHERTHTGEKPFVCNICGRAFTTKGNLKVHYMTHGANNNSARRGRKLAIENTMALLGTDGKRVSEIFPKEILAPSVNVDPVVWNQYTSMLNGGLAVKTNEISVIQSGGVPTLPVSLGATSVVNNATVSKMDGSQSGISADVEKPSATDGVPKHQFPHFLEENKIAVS
GCAGCCGC: -0.289
CATGGAGG: -0.025
GCTCAACA: -0.0974
GATTCCGA: -0.0974
AATTACAA: 0.345
CCCCAGGG: -0.403
TCTACTAA: 0.229
AGCGGCCT: -0.345
ACCGGTTG: -0.266
GAGAATGC: -0.126
CCCCCTCC: -0.325
ACTGCACG: -0.137
TCCCGACA: -0.0558
AACCAGCC: -0.0962
CTCTGGTC: -0.0997
AGGGTACG: -0.00503

Study 4
Target: RNA binding protein fox-1 homolog 2, RRM domain, GST-SBP tag (RBFOX2, Homo sapiens, UniProt O43251-10, residues 100-194)
Method: RNA Bind-n-Seq
Form: RNA
Matrix: in vitro
Concentration: 365 nM
Setting: natural RNA segment, single round, ends assumed
Reference: no-protein control
Direction: higher = stronger binding
Measurement: RBNS enrichment (R)
Target sequence (chain): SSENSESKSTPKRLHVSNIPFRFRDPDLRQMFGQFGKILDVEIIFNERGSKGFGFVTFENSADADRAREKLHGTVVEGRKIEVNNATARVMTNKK
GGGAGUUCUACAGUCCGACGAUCGGAUUCAGAUGGAAGCUUCGCAAGGCUGGGGGCCGAGGACCACCCACUUCUCUUUCCCAGCCCUAGUUCUGGGUUCCCCAGUGGGGCAAGGGGUGGUGGAGGCAGUGCCCUGGAAUUCUCGGGUGCCAA: 0.181
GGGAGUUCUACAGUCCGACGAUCUACUCAUUGUUAGGAUCCUACUGCUGAAGGGUGCUAUGUCACUUUCUAGUGCUCUUAUAUGUCUUUAAUUAUAGGACUGGAAUGAAAAGCUUAACCAUACAGUAUUUCUAUGGAAUUCUCGGGUGCCAA: 0.393
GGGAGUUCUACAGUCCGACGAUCUGUGGUGCUUCCGACCCUGGCUGUCAGAGUGAAAUGUAAAGUCAGGGCUCUGUACAGUUUUGCCAUUUCACUGUUCUGCUUUAAGCUUAGCUUAUUAGAACUCUUGGUGGUGGAAUUCUCGGGUGCCAA: 0.194
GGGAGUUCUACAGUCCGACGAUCGUUUUGUUGUUGUUUUGAGACAGGGUUUCUUUGUGUAGCCCUGACUGUUCUGGAACUUGCUCUGAAGACCAGGCUGACCUCGAACUCAGAGAUCUGCCUGCCUCUGCUUCUGGAAUUCUCGGGUGCCAA: 0.316
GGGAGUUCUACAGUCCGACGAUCGCUCCUGUAUUUCUGUGUUCCUCGGCCCUCUUGUCUGCCCAUUUCGUGUCCAGAGAGGGACAGGGUCUCAUUGUCACCCUCCAAAUACAUAAAGGCUGGUUCAGAAUGUUUGGAAUUCUCGGGUGCCAA: 0.319
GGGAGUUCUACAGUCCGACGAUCCCCAUGGGACCACAGACCCAGCUCAGCUCUGUUGAAGACCAAGCACAAAGGCCUUGAAGAGUGGACAUUCCCAGGUCCCUGGCACCUUCCCUUGAGCCAGCUCCAUUGCUUGGAAUUCUCGGGUGCCAA: 0.324
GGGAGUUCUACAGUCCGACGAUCAGCAGUGUCCGGGGAGAGUGGCUUUAGACCAGUCAGUACCUUGCUCUUUGUGCAUGGUGCAUGUCAAGUCAGGAAGCCAAGAAACCGUUGGCAUUAAAAUCUAGAUGCAUUGGAAUUCUCGGGUGCCAA: 0.257
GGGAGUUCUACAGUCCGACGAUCUCUAUCCCCUGGAACUUAUGCAUUACAUGUAUUCAGAUAGUAUCUCAACGAUUAUAGAGAGCCUUUUCUGUCCAAGCUGUCUCAUUCCAGUCCUCUAACACCCCUUGAGAUGGAAUUCUCGGGUGCCAA: 0.476
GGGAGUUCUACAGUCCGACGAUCGGGGUUUCUUCACGAUCGCACUGGAAGAUUUUAUAAGAGUUUUGGGGGGGGGGGGACAGUAAACGUCCUGAGCCACUUGGGUUCUUCAGGAGUUUCUCUUAGGGAAAGUUUGGAAUUCUCGGGUGCCAA: 1.1
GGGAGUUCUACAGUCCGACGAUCUUAUAGCACCAUGAGAGCUACAGUACUCUUGAAUUCUAGAGAUAGGUUUUGGUAAAUGUGAACUUGUUUCUAGGUUAACAGUCAAGGAGAGGGACAUGAAUCGUGCAUGUUGGAAUUCUCGGGUGCCAA: 6.47
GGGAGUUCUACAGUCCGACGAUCAAGGCAUUCCUUGUUUUUAACUAAUAUUUGCACAUUUUCUUAGUCUCCUUCCUGAUGGUCGCCCGUCCUCCCCUUUUGACGGAUGGUAUUCUUUCCUAACUCCCUCUGUUUGGAAUUCUCGGGUGCCAA: 1.48
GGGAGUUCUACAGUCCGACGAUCUCAGUAGCCUUAUCCUGUUGGUGGAAUACUGUACCAUAUGCUCCUCCAAAACCCAUGAACACGGCCAAAACCCAUAAAAACAACAAAAGCAAACUAAGUCAAGAACCGUAUGGAAUUCUCGGGUGCCAA: 0.409

Study 5
Target: Histone acetyltransferase KAT6A, winged helix 1, GST fusion (KAT6A, Homo sapiens, UniProt Q92794, residues 1-85)
Method: protein binding microarray
Form: double-stranded DNA, one strand shown
Matrix: in vitro
Concentration: not given
Setting: 8-mer, flanks averaged, mean of 2 arrays, mostly near background
Reference: not given
Direction: higher = stronger binding
Measurement: E-score
Residues (chain): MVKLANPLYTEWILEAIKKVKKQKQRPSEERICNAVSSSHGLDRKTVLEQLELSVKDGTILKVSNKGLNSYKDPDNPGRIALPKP
CACCGGCG: 0.391
TCCTTAAA: -0.299
CCATTTAC: -0.0755
GAGCCGAC: 0.29
AAGGCGAG: 0.0232
GGACATAC: 0.096
CTGACGTA: 0.05
AAGAGCAC: -0.162
CGAGTGGC: -0.0139
ATTAGAAC: -0.029
CCTAAAAG: -0.149
CTGTATGC: -0.0816
AAGCATTG: -0.0837
AGCAGTAT: -0.178
CAATCATA: -0.00839
CGCACTAG: 0.142
ATTATATG: -0.152
AAGGGTAC: -0.19
CTTGTATA: -0.107
GGCCGAAA: 0.144
AGACGTTG: -0.121
AACCCACG: -0.189
ACGACTGG: 0.0588
GCGGTAAC: 0.366
AGTTTTCG: -0.211

A few entries again (study 1):
PLAKRALKYTDAK [E12A]: 0.168
PLAKRALKYTAEK [D11A]: -0.191
PLAKRALKATDEK [Y9A]: 0.0121
PLAKAALKYTDEK [R5A]: -0.188
PLAKRALKYADEK [T10A]: 0.476
